Results pooled from the literature.
Compare with care: the assays were run in different laboratories. “And” joins repeats or separate records; there may be more than shown. ± gives the spread as reported.
APP Aβ1-40: Amyloid-beta precursor protein, Aβ1-40 (APP, Homo sapiens, UniProt P05067)
RPA1 N-terminal domain: Replication protein A 70 kDa DNA-binding subunit, N-terminal domain (RPA1, Homo sapiens, UniProt P27694)
GLP1R: Glucagon-like peptide 1 receptor (GLP1R, Homo sapiens, UniProt P43220)
E3 ubiquitin-protein ligase NEDD4: E3 ubiquitin-protein ligase NEDD4 (Homo sapiens, UniProt P46934)

Sequences of proteins named here, by UniProt entry; tags and fusion partners are left off. A change or cut given only in a name is not applied to a line headed by its entry. Residues count along the entry.
UniProt P05067, whole entry, looked up: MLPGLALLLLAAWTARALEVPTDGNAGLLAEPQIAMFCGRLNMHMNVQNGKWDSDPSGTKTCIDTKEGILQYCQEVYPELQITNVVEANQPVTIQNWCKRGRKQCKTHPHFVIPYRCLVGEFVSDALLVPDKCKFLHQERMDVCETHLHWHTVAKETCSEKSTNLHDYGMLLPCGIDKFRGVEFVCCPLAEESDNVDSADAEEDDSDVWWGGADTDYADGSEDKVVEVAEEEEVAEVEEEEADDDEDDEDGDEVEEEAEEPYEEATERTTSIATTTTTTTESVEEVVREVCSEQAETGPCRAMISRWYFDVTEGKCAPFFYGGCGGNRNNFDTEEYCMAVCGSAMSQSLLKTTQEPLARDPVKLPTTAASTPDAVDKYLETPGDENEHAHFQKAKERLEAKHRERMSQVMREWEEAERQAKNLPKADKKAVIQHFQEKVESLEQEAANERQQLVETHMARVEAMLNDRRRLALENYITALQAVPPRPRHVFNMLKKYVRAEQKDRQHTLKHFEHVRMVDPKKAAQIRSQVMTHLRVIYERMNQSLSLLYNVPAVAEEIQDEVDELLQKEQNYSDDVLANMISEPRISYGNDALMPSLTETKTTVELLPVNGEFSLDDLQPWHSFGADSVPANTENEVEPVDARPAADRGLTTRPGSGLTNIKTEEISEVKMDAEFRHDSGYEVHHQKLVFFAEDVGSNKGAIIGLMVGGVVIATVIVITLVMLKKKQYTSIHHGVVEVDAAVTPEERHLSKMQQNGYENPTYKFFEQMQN
UniProt P05067, 672-713 limits assumed: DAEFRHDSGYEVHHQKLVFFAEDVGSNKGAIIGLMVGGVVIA
UniProt P46934, whole entry, looked up: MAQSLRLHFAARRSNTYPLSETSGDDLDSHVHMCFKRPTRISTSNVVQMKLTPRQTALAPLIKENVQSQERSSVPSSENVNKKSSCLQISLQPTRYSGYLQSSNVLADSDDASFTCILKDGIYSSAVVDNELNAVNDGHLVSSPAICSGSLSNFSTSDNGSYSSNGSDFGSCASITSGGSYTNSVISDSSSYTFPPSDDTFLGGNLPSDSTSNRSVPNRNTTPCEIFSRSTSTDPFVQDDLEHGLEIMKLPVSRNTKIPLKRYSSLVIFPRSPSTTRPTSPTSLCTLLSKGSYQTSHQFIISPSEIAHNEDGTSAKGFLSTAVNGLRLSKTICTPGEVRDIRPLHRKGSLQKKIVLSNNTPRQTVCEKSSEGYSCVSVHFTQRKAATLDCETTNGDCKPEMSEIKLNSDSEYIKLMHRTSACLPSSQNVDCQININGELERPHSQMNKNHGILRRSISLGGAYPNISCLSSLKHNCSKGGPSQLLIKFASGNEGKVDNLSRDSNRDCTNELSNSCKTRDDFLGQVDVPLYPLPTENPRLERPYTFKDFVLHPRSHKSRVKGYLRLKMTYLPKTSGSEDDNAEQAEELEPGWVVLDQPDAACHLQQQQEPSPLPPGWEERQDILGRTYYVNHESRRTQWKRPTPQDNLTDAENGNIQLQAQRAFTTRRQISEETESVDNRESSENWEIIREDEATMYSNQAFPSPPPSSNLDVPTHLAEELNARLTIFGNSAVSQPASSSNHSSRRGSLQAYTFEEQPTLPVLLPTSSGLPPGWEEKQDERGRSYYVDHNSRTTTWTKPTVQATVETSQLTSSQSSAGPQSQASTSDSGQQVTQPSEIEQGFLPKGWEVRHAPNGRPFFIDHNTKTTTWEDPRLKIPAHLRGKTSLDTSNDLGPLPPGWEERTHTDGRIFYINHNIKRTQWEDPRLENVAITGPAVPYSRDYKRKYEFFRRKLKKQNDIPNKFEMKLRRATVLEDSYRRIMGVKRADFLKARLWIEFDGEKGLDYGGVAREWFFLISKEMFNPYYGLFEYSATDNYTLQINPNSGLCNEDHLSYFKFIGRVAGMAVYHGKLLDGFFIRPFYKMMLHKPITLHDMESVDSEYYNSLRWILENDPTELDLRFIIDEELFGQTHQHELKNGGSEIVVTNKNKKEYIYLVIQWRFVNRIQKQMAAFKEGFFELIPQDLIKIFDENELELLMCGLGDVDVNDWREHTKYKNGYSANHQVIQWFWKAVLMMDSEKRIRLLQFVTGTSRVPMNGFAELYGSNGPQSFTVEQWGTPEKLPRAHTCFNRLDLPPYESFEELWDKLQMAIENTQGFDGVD
UniProt P30291, whole entry, looked up, stated change not applied: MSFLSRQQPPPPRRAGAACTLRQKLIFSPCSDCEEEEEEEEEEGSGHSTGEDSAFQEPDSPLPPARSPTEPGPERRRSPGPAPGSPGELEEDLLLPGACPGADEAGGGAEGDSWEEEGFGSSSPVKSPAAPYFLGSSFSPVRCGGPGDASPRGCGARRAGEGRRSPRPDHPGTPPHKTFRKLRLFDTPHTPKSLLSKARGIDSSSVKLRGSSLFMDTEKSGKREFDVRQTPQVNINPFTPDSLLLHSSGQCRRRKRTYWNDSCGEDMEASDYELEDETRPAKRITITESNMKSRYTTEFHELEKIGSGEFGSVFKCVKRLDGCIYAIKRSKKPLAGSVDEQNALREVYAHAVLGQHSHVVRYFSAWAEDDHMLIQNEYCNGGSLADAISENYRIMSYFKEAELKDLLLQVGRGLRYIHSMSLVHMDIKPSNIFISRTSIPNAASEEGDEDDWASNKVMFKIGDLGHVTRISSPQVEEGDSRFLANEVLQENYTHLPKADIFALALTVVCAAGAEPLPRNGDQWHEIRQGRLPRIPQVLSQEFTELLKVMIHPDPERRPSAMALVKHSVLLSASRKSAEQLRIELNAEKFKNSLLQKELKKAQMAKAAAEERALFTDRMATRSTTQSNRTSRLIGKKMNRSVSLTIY
UniProt P31424, 21-1203 limits assumed: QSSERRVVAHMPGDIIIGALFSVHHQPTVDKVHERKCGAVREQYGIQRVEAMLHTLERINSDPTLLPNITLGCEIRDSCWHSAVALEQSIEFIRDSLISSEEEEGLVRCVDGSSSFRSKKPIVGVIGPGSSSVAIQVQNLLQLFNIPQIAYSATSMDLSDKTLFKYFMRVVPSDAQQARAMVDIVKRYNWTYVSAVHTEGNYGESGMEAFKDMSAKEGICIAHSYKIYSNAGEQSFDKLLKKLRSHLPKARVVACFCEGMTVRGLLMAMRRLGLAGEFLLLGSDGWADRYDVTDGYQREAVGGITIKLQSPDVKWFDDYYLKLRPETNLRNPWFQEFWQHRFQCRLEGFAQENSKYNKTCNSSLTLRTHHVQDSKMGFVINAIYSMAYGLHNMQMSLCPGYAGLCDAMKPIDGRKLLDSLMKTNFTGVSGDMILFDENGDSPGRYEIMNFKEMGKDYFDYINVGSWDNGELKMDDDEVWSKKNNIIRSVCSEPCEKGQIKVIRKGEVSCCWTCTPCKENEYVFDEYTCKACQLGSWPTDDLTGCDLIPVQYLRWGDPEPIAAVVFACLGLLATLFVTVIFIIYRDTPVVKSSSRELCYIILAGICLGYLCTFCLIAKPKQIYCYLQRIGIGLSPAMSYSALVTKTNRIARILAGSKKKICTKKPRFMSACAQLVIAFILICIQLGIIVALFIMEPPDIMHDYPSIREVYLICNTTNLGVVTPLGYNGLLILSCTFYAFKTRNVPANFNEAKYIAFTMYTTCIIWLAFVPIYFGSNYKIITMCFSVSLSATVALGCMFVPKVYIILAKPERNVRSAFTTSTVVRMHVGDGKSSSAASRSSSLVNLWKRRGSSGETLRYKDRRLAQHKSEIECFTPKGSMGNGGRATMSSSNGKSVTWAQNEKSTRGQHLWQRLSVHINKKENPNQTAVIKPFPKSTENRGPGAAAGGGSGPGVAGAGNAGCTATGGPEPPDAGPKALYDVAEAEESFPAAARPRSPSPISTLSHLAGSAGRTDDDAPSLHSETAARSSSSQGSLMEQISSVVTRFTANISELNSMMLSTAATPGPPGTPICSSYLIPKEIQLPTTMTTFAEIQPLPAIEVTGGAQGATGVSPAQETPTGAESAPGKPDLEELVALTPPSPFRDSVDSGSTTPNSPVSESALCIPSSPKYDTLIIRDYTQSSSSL
UniProt P45983, 1-384 isoform 3: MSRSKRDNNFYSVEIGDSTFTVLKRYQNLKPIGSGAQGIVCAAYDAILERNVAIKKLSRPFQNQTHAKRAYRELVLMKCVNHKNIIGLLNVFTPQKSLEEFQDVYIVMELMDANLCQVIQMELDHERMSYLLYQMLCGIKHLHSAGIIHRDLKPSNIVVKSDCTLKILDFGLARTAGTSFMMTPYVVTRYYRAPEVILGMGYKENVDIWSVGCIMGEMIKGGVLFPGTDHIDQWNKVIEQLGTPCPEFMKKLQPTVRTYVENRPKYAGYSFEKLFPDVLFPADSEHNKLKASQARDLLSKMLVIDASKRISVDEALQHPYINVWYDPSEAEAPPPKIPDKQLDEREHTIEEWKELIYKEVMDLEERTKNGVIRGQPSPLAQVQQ
UniProt Q9UBN7, whole entry: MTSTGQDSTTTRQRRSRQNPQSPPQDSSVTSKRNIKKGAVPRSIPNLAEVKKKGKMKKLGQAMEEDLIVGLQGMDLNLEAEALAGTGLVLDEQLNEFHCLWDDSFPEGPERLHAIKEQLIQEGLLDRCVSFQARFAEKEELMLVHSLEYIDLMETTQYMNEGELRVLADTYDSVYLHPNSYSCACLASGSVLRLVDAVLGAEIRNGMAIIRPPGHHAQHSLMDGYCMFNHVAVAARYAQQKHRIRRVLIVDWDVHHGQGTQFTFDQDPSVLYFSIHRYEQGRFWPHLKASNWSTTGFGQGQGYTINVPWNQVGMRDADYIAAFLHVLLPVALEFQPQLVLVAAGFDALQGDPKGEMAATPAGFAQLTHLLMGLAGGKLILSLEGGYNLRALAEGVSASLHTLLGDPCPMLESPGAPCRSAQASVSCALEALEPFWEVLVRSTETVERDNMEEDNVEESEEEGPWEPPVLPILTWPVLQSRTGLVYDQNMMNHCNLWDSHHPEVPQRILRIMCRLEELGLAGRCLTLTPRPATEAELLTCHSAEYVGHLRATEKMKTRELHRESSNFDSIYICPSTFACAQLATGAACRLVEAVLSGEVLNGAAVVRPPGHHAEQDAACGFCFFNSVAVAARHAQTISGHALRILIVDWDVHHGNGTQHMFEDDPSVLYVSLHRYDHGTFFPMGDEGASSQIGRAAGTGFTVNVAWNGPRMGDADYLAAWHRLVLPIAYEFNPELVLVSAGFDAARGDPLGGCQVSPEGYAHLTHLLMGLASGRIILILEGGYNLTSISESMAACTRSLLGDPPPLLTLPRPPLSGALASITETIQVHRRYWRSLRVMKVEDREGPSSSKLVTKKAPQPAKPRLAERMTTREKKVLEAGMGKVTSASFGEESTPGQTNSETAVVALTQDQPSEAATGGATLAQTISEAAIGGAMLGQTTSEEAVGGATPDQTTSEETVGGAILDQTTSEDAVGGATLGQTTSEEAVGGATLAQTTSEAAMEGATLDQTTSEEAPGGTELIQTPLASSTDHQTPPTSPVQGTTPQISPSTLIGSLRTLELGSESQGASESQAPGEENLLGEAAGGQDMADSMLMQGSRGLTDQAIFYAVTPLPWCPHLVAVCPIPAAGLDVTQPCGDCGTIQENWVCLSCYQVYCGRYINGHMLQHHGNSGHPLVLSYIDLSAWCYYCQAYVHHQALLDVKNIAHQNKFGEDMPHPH
UniProt P07900, 1-236 S52A limits assumed: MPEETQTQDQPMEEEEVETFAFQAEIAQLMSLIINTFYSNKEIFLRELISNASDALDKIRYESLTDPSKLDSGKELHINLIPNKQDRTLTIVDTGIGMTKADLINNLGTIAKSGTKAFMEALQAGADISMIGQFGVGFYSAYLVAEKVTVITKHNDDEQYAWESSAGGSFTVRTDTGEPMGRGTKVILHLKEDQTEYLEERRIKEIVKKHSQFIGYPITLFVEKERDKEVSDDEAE
UniProt P11229, whole entry: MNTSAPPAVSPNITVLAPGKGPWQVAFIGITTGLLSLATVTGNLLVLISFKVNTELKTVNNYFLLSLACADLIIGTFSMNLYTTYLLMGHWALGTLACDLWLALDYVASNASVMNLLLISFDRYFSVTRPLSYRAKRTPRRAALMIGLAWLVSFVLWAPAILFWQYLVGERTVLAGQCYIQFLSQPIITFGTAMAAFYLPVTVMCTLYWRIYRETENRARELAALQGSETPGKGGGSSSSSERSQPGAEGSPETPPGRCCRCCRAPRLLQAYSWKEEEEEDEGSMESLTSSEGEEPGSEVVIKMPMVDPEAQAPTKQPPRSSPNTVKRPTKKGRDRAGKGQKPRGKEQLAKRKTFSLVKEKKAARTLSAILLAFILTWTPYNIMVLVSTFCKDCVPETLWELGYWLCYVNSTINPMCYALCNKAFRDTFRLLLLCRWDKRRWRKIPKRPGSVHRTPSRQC
UniProt Q8IUN9, whole entry, looked up: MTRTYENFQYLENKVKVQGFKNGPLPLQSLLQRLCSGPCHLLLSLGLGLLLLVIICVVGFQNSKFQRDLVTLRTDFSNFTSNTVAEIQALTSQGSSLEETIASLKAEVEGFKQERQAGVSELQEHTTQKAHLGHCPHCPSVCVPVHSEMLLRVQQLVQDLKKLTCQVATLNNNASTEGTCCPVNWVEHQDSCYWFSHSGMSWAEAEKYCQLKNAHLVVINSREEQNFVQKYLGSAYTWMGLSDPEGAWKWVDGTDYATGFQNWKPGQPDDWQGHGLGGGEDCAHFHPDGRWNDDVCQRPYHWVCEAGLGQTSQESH

| Structure (SMILES) | target | test | system | setting | how to read | measurement | value |
| --- | --- | --- | --- | --- | --- | --- | --- |
| O=C1CCC(N2Cc3cc(-c4nc5ccccn5c4NC45CC6CC(CC(C6)C4)C5)ccc3C2=O)C(=O)N1 (stereo not shown) | WEE1/CRBN (Homo sapiens, UniProt P30291+Q96SW2, G322A) | degrader, HiBiT | MOLM-14 | 5 h | – | Dmax | 54% |
| O=[N+]([O-])c1ccc(/C=C/c2c[nH]c3ccc(F)cc23)c(F)c1 | APP Aβ1-40 | Aβ40 aggregation, thioflavin T fluorescence | – | 25 µM | – | inhibition | 82% |
| OC[C@@H]1[C@@H](O)[C@H](O)[C@@H](O)CN1CCCCCOCc1ccc(-c2cccnc2)cc1 | Beta-glucosidase (GBA2, Homo sapiens, UniProt Q9HCG7) | – | – | – | relative to: GCS IC50 over GBA2 IC50 | selectivity ratio | 200 |
| NC(=O)c1cn(-c2ccc(F)cc2)c2ccc(CN3CCSCC3)cc2c1=O | Grm2 (Rattus norvegicus, UniProt P31421) | calcium mobilization, negative allosteric modulator | – | 30 µM, together with: glutamate 100 µM | relative to: glutamate maximum | response | 1.52 ± 0.63% |
| CC(=O)N[C@@H](C)C(=O)N[C@@H](CC(C)C)C(=O)N[C@H](C(=O)N[C@@H](CO)C(=O)N[C@@H](CCCNC(=N)N)C(=O)Nc1ccc2c(CC(N)=O)cc(=O)oc2c1)C(C)C | MALT1 (Homo sapiens, UniProt Q9UDY8) | substrate, fluorogenic peptide hydrolysis | – | pH 7.5, enzyme 399 nM, citrate 0.9 M | – | kcat/Km | 8400 M⁻¹ s⁻¹ |
| N#Cc1ccc2[nH]cc(/C=C/c3ccc(CO)cc3)c2c1 | APP Aβ1-40 | Aβ40 aggregation, thioflavin T fluorescence | – | 25 µM | – | inhibition | 11% |
| Cc1ccc(C(=O)Nc2ccccc2C(=O)O)cc1S(=O)(=O)Nc1ccc(Cl)cc1 | RPA1 N-terminal domain | binding, fluorescence polarisation competition | – | together with: FITC-ATRIP probe | – | ligand efficiency | 0.2 |
| CCc1ccc(-c2nc(Nc3nc4ccccc4o3)ncc2C#N)cc1 | Grm5 (Rattus norvegicus, UniProt P31424) | calcium mobilization, negative allosteric modulator | – | together with: glutamate EC80 | relative to: glutamate maximum | maximal response | 2.8 ± 0.5% |
| COc1ccc(NC(=O)CN2CCCN(S(=O)(=O)Cc3ccccc3)CC2)c(OC)c1 | GRM4 (Homo sapiens, UniProt Q14833) | calcium mobilization, positive allosteric modulator | CHO cells with Gqi5 | together with: glutamate | relative to: PHCCC maximal response | maximal response | 46.5% |
| Cc1cc(NC(=O)c2cccc(NC(=O)C3=CC(C)(C)CCC3=O)c2)ccc1Nc1nccc(-c2cccnc2)n1 | MAPK8 (Homo sapiens, UniProt P45983) | kinase activity, inhibitor | – | 4.938 µM, unit not given, together with: 10 mM GSH | relative to: DMSO | remaining activity | 0.239 |
| [2H]C([2H])(C)N(C(=O)C1CCN(S(=O)(=O)c2ccc3[nH]ncc3c2)CC1)[C@@H]1CCc2ccccc21 | CHRM5 (Homo sapiens, UniProt P08912) | positive allosteric modulator, calcium mobilization | CHO cells expressing human M5 | together with: acetylcholine EC20 | relative to: ACh maximum | potentiation | 74 ± 3% |
| CC(=O)NCCCC[C@H](NC(=O)CNC(=O)[C@H](CCCNC(=N)N)NC(C)=O)C(=O)Nc1ccc2c(C)cc(=O)oc2c1 | HDAC6 (Homo sapiens, UniProt Q9UBN7) | deacetylation, substrate | – | 25 °C, together with: 10 to 50 nM enzyme | – | kcat/KM | 36000 ± 7000 M⁻¹ s⁻¹ |
| Cc1ccc(C(=O)Nc2cccc(C)c2C(=O)O)cc1S(=O)(=O)Nc1ccc(Br)cc1 | RPA1 N-terminal domain | binding, fluorescence polarisation competition | – | together with: FITC-ATRIP probe | – | ligand efficiency | 0.19 |
| C/C=C/Cn1c(Cc2cc(OC)c(OC)c(OC)c2)nc2c(N)ncnc21 | Heat shock protein HSP 90-alpha, N-terminal domain (HSP90AA1, Homo sapiens, UniProt P07900, S52A) | isothermal titration calorimetry | – | 298 K, N-terminal domain S52A | – | ΔH | -11.5 ± 0.19 kcal/mol |
| CC(C)(Cn1cc(-c2ccc(N)nc2)nn1)c1c[nH]c2ccccc12 | GLP1R | cAMP accumulation, positive allosteric modulator, HTRF | – | 0.6 µM, crude reaction product, together with: GLP-1(9-36) at EC20 | relative to: BETP | Emax | 87.1% |
| Nc1nc(SCc2ccc(Cl)cc2)nn1S(=O)(=O)c1ccc(C(F)(F)F)nc1 | Lysophospholipase-like protein 1 (Mus musculus, UniProt Q3UFF7) | activator, gel-based ABPP, FP-rhodamine | HEK293 overexpressing Lysophospholipase-like protein 1 | 10 µM | – | activation | 7% |
| CCOC(=O)C(C(=O)/C=C/c1ccc(O)c(OC(F)(F)F)c1)C(=O)/C=C/c1ccc(O)c(OC(F)(F)F)c1 | APP (Homo sapiens, UniProt P05067) | SDS-PAGE western blot, item: Aβ1-42 species 75-200 kDa | – | 30 µM, 24 h, 37 °C, together with: Aβ 10 µM | relative to: DMSO control | Aβ band density | 1580 ± 178% |
| CN(Cc1ccccc1)Cc1cn(CC(C)(C)c2c[nH]c3ccccc23)nn1 | GLP1R | cAMP accumulation, positive allosteric modulator, HTRF | – | 0.6 µM, purified compound, together with: GLP-1(9-36) at EC20 | relative to: BETP | Emax | 95 ± 1% |
| CCOC(=O)/C=C/CNCCCCN1c2ccccc2CCc2ccc(Cl)cc21 | E3 ubiquitin-protein ligase NEDD4 | inhibitor, Ub-TR-FRET | – | 0.005081 µM, 1 h preincubation, HECT domain, together with: ATP 2 mM | higher = more ubiquitination | ubiquitination TR-FRET signal AUC | 90000 a.u. and 96500 a.u. and 93500 a.u. and 145000 a.u. and 97600 a.u. and 147000 a.u. |
| O=C(O)c1cc(C(=O)N[C@@H](Cc2cnc[nH]2)C(=O)O)cc([C@H]2CCN[C@@H]2C(=O)O)c1 | Glutamate receptor ionotropic, kainate 1 (Rattus norvegicus, UniProt P22756) | radioligand binding | Sf9 membranes | 10 µM, homomeric receptor, together with: [3H]SYM2081 | – | specific binding | 76 ± 1% |
| O=C(N[C@H]1CCCC[C@@H]1O)[C@@H]1CN(Cc2ccc(-n3cccn3)cc2)c2ccccc2O1 | CHRM1 (Homo sapiens, UniProt P11229) | calcium mobilization, positive allosteric modulator | high-expression cell line | together with: acetylcholine EC20 | relative to: acetylcholine max | efficacy | 89 ± 2% |
| CC(=O)N[C@H]1[C@@H](O[C@H](C)[C@H](N)C(=O)O)O[C@H](CO)[C@H](O)[C@@H]1O | CLEC10A, carbohydrate recognition domain (Homo sapiens, UniProt Q8IUN9) | binding, ITC | – | 293 K | – | ΔH | -12 ± 0.3 kcal/mol |
| CC(C)C[C@H](NC(=O)[C@@H]1CCCN1C(=O)[C@H](CCC(N)=O)NC(=O)CNC(=O)[C@H](CO)NC(=O)[C@H](CCCNC(=N)N)NC(=O)[C@H](Cc1ccccc1)NC(=O)[C@H](CC(N)=O)NC(=O)[C@H](CCCNC(=N)N)NC(=O)[C@@H](NC(=O)c1ccccc1N)C(C)C)C(=O)N[C@@H](CCC(N)=O)C(=O)N[C@@H](CC(N)=O)C(=O)N[C@@H](CCCCN)C(=O)N[C@H](C(=O)N[C@@H](CCC(N)=O)C(=O)NCCNc1ccc([N+](=O)[O-])cc1[N+](=O)[O-])C(C)C | Mitochondrial intermediate peptidase (MIPEP, Homo sapiens, UniProt Q99797) | substrate, FRET peptide hydrolysis | – | – | – | kcat | 0.223 s⁻¹ |
| O=C(O)c1ccnc(C(=O)O)c1Nc1ccc([N+](=O)[O-])cc1 | Egl nine homolog 1 (EGLN1, Homo sapiens, UniProt Q9GZT9) | inhibitor, HTRF | – | 400 µM | – | remaining activity | 100% |
| Nc1ncnc2c1ccn2[C@@H]1O[C@H](COc2ccc3cc(Br)cnc3c2)[C@@H](O)[C@H]1O | Protein arginine N-methyltransferase 5, with MEP50 (PRMT5, Homo sapiens, UniProt O14744) | binding, surface plasmon resonance | – | – | – | dissociation rate constant | 0.0114 s⁻¹ |
| CCOC(=O)/C=C/CNCCCN1c2ccccc2CCc2ccc(Br)cc21 | E3 ubiquitin-protein ligase NEDD4 | inhibitor, Ub-TR-FRET | – | 0.005081 µM, 1 h preincubation, HECT domain, together with: ATP 2 mM | higher = more ubiquitination | ubiquitination TR-FRET signal AUC | 148000 a.u. and 145000 a.u. |
| Cc1cccc(Nc2ncnc3onc(-c4ccc(Cl)cc4)c23)c1C | CFTR (Homo sapiens, UniProt P13569, del508-508) | – | FRT expressing ΔF508-CFTR | – | relative to: DMSO | iodide influx rate | 109 µM/s |
| CCOCCOCCOCCCCCNC(=O)NC12CC3CC(C1)C(O)C(C3)C2 (stereo not shown) | EPHX2 (Homo sapiens, UniProt P34913) | enzyme activity, inhibitor, fluorescent | – | concentration not given | relative to: AEPU | fold decrease in inhibitory potency | 30 to 100 fold |

Some of these lines once more:
| Structure (SMILES) | target | test | system | setting | how to read | measurement | value |
| --- | --- | --- | --- | --- | --- | --- | --- |
| Nc1nc(SCc2ccc(Cl)cc2)nn1S(=O)(=O)c1ccc(C(F)(F)F)nc1 | Lysophospholipase-like protein 1 (Mus musculus, UniProt Q3UFF7) | activator, gel-based ABPP, FP-rhodamine | HEK293 overexpressing Lysophospholipase-like protein 1 | 10 µM | – | activation | 7% |
| CCOC(=O)/C=C/CNCCCN1c2ccccc2CCc2ccc(Br)cc21 | E3 ubiquitin-protein ligase NEDD4 | inhibitor, Ub-TR-FRET | – | 0.005081 µM, 1 h preincubation, HECT domain, together with: ATP 2 mM | higher = more ubiquitination | ubiquitination TR-FRET signal AUC | 148000 a.u. and 145000 a.u. |
